Results pooled from the literature.
Every numbered part comes from another study and shows a few of its results, in no order.

Study 1
Target: Prothrombin, mature alpha-thrombin (F2, Homo sapiens, UniProt P00734)
Method: aptamer microarray, sandwich
Form: DNA with 2'F-ANA
Matrix: in vitro
Concentration: 200 nM
Setting: whole 15-mer aptamer, many near background
With: Cy3 exosite-II aptamer, 400 nM
Reading: higher = stronger binding
Strand: GGTTGGTGTGGTTGG
For `2'F-ANA at 4 6 8 9 11 12 14`, “mean fluorescence intensity” read 86.5 a.u.
For `2'F-ANA at 3 4 5 8 9 12 14`, “mean fluorescence intensity” read 58.8 a.u.
`2'F-ANA at 3 4 5 6 11 12 14 15` — result for “mean fluorescence intensity”: 57.6 a.u.
For `2'F-ANA at 2 3 4 5 6 7 11 13 14`, “mean fluorescence intensity” read 49.4 a.u.
`2'F-ANA at 2 4 6 7 10 11 12` — result for “mean fluorescence intensity”: 136 a.u.

Study 2
Target: Sal-like protein 4, full length isoform B (SALL4, Homo sapiens, UniProt Q9UJQ4-2, residues 1-616)
Method: universal PBM
Form: double-stranded DNA, one strand shown
Matrix: in vitro
Concentration: not given
Setting: 8-mer, flanks averaged, mean of replicates
Reading: higher = stronger binding
`CGGAATAA` gave an E-score of 0.045.
The E-score of `CAGCTCGC` is reported as -0.198.
`ATTGTACG` gave an E-score of 0.17.
With `ACTTTTTG` the E-score was 0.0875.
For `CCTGATAG`, the E-score was -0.142.
The E-score of `GACCGCGA` is reported as -0.257.
The E-score of `GCTGCCCA` is reported as -0.31.
With `GCCGATTA` the E-score was 0.0923.

Study 3
Target: Interferon regulatory factor 5, full length, phosphomimetic (IRF5, Homo sapiens, UniProt Q13568-2, residues 1-514, S451D/S453D/S456D/S462D)
Method: protein-binding microarray
Form: double-stranded DNA, one strand shown
Matrix: in vitro
Concentration: 940 nM top
Setting: 60-bp whole probe
With: salmon DNA 0.4 mg/ml
Reference: random background probes
Reading: higher = stronger binding
All sequences stand within: GCCTAGCAC … GTCTTGATTCGCTTGACGCTGCTG
Under “fitted relative affinity”, `GACGATTTCAGATCCGAGACGTGCTAG` is recorded as -0.0663 z-score.
For `ATAACACTCTTCTTTTGCTAAGTGCTA`, “fitted relative affinity” read 0.968 z-score.
`TTAGATATCCTTATCCTTTAGTGCTAG`: “fitted relative affinity” 0.158 z-score.
For `GACGATTACGGGTATCGAGACGTGCTA`, “fitted relative affinity” read 0.674 z-score.
For `GACGAACTGAGACTAGAGACGTGCTAG`, “fitted relative affinity” read -0.342 z-score.
`GACGAACCGGGGACTGGAGACGTGCTA` — result for “fitted relative affinity”: -0.126 z-score.

Further values, each from its own experiment
For `PhoQ, residues 284 288 289 292 302 303 AANNSF`, the fold induction was 6.57 (PhoP, residues 12 14 15 18 19 NQGLL (Escherichia coli, UniProt P23836); Sort-seq, refers to: YFP reporter; E. coli; PhoQ-PhoP variant library, with: 10 µM Mg2+; reference: high Mg2+ state, higher = stronger signaling).

For quick reference, copied from above (study 3):
For `ATAACACTCTTCTTTTGCTAAGTGCTA`, “fitted relative affinity” read 0.968 z-score.
`TTAGATATCCTTATCCTTTAGTGCTAG`: “fitted relative affinity” 0.158 z-score.
